Measured values gathered from unrelated publications.
Each numbered part is a random draw from the data of one study; scales do not carry over between parts. Positions count from the first letter of the parent shown.

Series 1
Target: Probable WRKY transcription factor 50, DNA-binding domain (WRKY50, Arabidopsis thaliana, UniProt Q8VWQ5, residues 99-173)
Method: DNA-protein interaction ELISA
Molecule type: double-stranded DNA, one strand shown
Sample: in vitro, bacterial lysate
Concentration: not given
Notes: whole dsDNA probe, crude lysate protein
Reference: highest signal in screen
Reading: higher = stronger binding
Residues (chain): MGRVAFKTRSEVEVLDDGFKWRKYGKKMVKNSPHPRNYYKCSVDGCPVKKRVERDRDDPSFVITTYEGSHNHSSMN
Oligonucleotide | relative absorbance
AAAAAAAAATTTCGAGCCTCGGCGTAAAAA | 10.4 % of maximum
AAAAAATTCTTTTTTCTTCAAGGTCTAAAA | 46 % of maximum
AAAAAAGACCGCAGCAAGAATTAAATAAAA | 43.4 % of maximum
AAAAAAGCGTAAGCCTTGACAGTCGTAAAA | 39 % of maximum
AAAAAAAGTTCCAGGTCCGATGCTCAAAAA | 41 % of maximum
AAAAAAACCCGTGCCTGCCTATTGCAAAAA | 16 % of maximum
AAAAAATGTGGTTACGGCCTCGATGAAAAA | 18.6 % of maximum
AAAAAATTCTTAGTTAGATTCACCTCAAAA | 22.9 % of maximum

Series 2
Target: inorganic phosphate, free oxyanion
Method: microfluidic competitive inhibition
Sample: in vitro, cell-free expressed
Concentration: not given
Notes: derived from inhibition constants, unchanged parent 615000 nM
Reading: lower = stronger binding
Starting sequence: PafA, mature enzyme, eGFP fusion (Elizabethkingia meningoseptica, UniProt Q9KJX5); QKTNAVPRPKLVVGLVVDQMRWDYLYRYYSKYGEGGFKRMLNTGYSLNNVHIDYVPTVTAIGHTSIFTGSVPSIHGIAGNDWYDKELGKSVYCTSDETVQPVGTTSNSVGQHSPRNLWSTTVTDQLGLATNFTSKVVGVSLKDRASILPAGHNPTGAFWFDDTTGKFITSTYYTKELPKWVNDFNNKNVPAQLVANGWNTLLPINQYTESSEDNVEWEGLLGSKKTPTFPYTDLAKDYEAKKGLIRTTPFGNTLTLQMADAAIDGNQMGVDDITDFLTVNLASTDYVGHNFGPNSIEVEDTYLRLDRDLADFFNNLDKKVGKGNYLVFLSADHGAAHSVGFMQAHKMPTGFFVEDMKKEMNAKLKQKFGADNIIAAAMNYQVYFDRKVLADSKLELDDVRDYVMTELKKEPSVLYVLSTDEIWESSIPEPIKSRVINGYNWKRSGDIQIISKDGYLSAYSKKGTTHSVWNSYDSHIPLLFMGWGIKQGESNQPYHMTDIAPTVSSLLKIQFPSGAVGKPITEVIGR
Change | phosphate dissociation constant
D260V | 574 µM
L202G | 513 µM
K408V | 564 µM
L141G | 1520 µM
T502G | 578 µM
K518G | 471 µM
I74V | 591 µM
T105V | 648 µM
I509G | 380 µM
K179V | 650 µM
V327A | 629 µM
S73V | 347 µM
Y459V | 642 µM
K179G | 581 µM
N314G | 524 µM
Q257G | 607 µM
Q100G | 564 µM
V468G | 364 µM
W483G | 602 µM
S418V | 638 µM
M496G | 192 µM
N266G | 596 µM

Series 3
Target: PABPC1L2, full length, GST fusion (mouse, UniProt A0ABA7IW68)
Method: RNAcompete
Molecule type: RNA
Sample: in vitro
Concentration: 20 nM
Notes: 7-mer, probes averaged, single round
Reference: mean of 7-mers
Reading: higher = stronger binding
Construct (chain): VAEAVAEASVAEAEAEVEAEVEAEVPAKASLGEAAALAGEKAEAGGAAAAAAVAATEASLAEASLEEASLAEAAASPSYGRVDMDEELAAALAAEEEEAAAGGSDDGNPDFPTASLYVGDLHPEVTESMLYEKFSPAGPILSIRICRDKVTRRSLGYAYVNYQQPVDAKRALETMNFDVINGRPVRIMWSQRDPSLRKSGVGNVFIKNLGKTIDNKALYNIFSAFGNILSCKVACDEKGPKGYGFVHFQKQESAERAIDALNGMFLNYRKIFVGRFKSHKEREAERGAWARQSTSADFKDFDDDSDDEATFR
Oligonucleotide | 7-mer Z-score
UUAGUCC | -0.434
UCCUACC | -0.325
GAUGCAA | 0.122
UCGGGUA | 0.0189
UUUACCA | -0.224
UAGAUGU | -0.0464
UACCCAU | -0.28
GUUUAUA | -0.237

Series 4
Target: CCNF, cyclin fold, Cln2 fusion (human)
Method: yeast growth competition, sequencing
Sample: yeast
Notes: strong parent motif
Reference: not given
Reading: higher = stronger binding
Starting sequence: viral docking peptide; YKVKRRLVFGADD
Change | normalised enrichment score
YKIKRRLVFGADD [V3I] | 9.07
YKVKRRDVFGADD [L7D] | 0.28
YKVARRLVFGADD [K4A] | 8.21
YKVGRRLVFGADD [K4G] | 8.72
YKEKRRLVFGADD [V3E] | 8.16
YKVKRRLVFFADD [G10F] | 8.54
YKVKRRLVIGADD [F9I] | 8.05
YKVKRQLVFGADD [R6Q] | 8.17
YKVKRRLCFGADD [V8C] | 8.9
YKWKRRLVFGADD [V3W] | 8.02
YKVKRRLVFGAGD [D12G] | 9.11
YKVKRRLSFGADD [V8S] | 7.86
YKVVRRLVFGADD [K4V] | 9.17
YKVKTRLVFGADD [R5T] | 5.03
YKVKRRLVHGADD [F9H] | 1.08
YKVDRRLVFGADD [K4D] | 7.52
YKVKKRLVFGADD [R5K] | 8.21
YKVKRRHVFGADD [L7H] | 0.602
YKVKRRLVFGEDD [A11E] | 8.43
YKVKRRVVFGADD [L7V] | 4.94
YKVKRRLMFGADD [V8M] | 9.36
YKVKRRLRFGADD [V8R] | 9.31

Excerpt of the above (series 1):
Oligonucleotide | relative absorbance
AAAAAAGACCGCAGCAAGAATTAAATAAAA | 43.4 % of maximum
AAAAAAAGTTCCAGGTCCGATGCTCAAAAA | 41 % of maximum
AAAAAAGCGTAAGCCTTGACAGTCGTAAAA | 39 % of maximum
AAAAAAACCCGTGCCTGCCTATTGCAAAAA | 16 % of maximum
AAAAAATGTGGTTACGGCCTCGATGAAAAA | 18.6 % of maximum
